Results pooled from the literature.
Parts stem from different laboratories: compare values within a part only. Changes are numbered by the printed parent chain.

Series 1 — method: protein-binding microarray; form: double-stranded DNA, one strand shown; matrix: in vitro; concentration: 0.8 µM; notes: whole 60-bp probe, no competitor; direction: higher = stronger binding
Target: Centromere-binding protein 1, full length, N-terminal tag (CBF1, Saccharomyces cerevisiae, UniProt P17106, residues 1-351)
Chain of UniProt P17106 (whole entry, looked up): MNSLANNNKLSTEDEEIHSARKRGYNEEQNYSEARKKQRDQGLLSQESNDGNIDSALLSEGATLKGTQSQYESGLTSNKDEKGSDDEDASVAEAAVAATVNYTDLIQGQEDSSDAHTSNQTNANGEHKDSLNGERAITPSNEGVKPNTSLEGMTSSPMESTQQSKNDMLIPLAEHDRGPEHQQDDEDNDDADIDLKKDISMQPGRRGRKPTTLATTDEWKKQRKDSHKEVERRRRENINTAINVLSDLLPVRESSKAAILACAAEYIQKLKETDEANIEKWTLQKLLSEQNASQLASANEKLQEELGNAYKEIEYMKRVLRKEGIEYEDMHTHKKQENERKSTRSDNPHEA
| Strand | fluorescence intensity [a.u.] |
| --- | --- |
| CTAAGCCAACGAGATCACGTGCACAGAAATATCTTCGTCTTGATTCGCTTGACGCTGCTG | 20800 |
| GAATGTAACCTTGATCACATGCGACGGGAGTTCTAGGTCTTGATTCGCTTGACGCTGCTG | 2510 |
| TGTACGAAGCTATATCTGGTGGCTATAGTAGTTAGGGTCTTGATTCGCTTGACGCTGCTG | 499 |
| CTAAATTCATGGCGCCATCACCCGCAGGGAATATTCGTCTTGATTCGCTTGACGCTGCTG | 485 |
| GAAAAAAAGCCCGAGCACGCACCATGTAATTTCTAGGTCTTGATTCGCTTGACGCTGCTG | 574 |
| CTACCTGTTTGGCCGCACATGAGAGTTAAACGCTTCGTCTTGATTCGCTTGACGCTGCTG | 618 |
| CTAACGCAATATTTCTACGTGATATCTATAAAATTCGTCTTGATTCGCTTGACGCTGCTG | 636 |
| GAATCTTTATCTTGAATGGTGATGACAATAGAGTAGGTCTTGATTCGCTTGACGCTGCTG | 641 |
| TGTACGAAGCTATATTACACGAGTATAGTAGTTAGGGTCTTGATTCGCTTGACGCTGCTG | 576 |
| GAATATATACAACATCATGCTCTTAAAAGAATATAGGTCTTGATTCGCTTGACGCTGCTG | 576 |
| GAAGCCGACCGGCATCACCCATAATTGTATAATTAGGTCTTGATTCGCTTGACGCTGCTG | 487 |
| CTACGCTATTCGGATGACGTGATGACGCTTCGGTTCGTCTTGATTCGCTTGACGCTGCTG | 653 |

Series 2 — method: RNA Bind-n-Seq; form: RNA; matrix: in vitro; concentration: not given; notes: RNA with constant flanks, ends assumed; relative to: input RNA pool; direction: higher = stronger binding
Target: RING finger protein unkempt homolog, zinc fingers 1-6, GST-SBP tag (UNK, Homo sapiens, UniProt Q9C0B0, residues 30-357)
Target sequence (chain): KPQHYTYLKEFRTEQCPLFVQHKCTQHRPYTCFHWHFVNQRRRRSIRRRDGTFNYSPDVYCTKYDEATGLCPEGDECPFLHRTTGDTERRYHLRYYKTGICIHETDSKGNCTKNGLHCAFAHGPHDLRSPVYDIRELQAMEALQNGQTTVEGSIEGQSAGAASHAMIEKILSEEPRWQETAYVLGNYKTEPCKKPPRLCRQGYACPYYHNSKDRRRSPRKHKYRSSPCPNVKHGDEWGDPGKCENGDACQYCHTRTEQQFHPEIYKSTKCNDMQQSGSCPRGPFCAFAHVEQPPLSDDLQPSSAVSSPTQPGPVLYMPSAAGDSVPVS
| Strand | bound/input enrichment |
| --- | --- |
| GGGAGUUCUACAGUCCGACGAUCGAUACAAAAAGGCUUUCCAAAGAGGAAAAGGGUCGCAGCAGUUGUGGUAGAAAUUUCUGGGUCCGUGGACUCUCUUCUACAACCAGAGCUACAGAUUUGAAGAAUCUUUUCAGCAAAUAUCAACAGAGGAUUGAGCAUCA | 0.171 ratio |
| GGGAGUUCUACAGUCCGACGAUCAGUUUCAGUUCAAACUUGAGCCCCCAAGAGUGGGUCCAGCUGUGGUUCACAGUUACCCGUUUCCGAAGUGAAGUUUCAUUUUCUGGGUGCCUUUGAAAACUGACUUCAUGUGUUUGUGACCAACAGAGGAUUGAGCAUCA | 0.142 ratio |
| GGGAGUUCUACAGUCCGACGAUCGAACAGUUUGUCCAGCUCCUUUCCGUAUCCUGUUGAACAUAUCAGGCAAACAGCGCCCAUCUCCGAACCUGCUCCCAGCAUUUACACUGUGGGAAUAAAGGUAGGCAGGGCUGUGCUGGGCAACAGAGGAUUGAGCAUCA | 0.0709 ratio |
| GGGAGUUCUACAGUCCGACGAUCCUGAGAAAUAACCUCCGGAGCAUAGAGUGGGAUCUAGAGGACCUUGAUGAAACCAUCAGCACCGUUGAAGCAAAUCCUAGAAAAUUUAACCUUGAUGCAACUGAAUUGAGUAUAAGAAAACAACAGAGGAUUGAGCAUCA | 1.52 ratio |
| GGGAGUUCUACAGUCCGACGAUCAGAGACUGAACAGUCCACAUCAUCAGCUCCUUAUACCUUCGCAGCCUCCCUCUCCAAACCCCGCAGGGCCCUGCUUCCCUCCCCACCUGACAUCCAGCCGUGGAUGAGGGGCCUGCUUAGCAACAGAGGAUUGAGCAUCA | 0.701 ratio |
| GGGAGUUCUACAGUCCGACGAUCGUAUAUCAAGGAGUGAAGAAACACGGCUUCUUACAGCCUCAUUUUUUGGCAGAACAAGAUACCGUUAUCAUUACCUAUGAUGUUCUUCGUUCAGAACUAAACUAUGUCAAUAUCCCACAUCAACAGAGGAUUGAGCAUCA | 0.047 ratio |

Series 3 — target: CCND2, cyclin fold, Cln2 fusion (human); method: yeast growth competition, sequencing; matrix: yeast; notes: strong parent motif; relative to: not given; direction: higher = stronger binding
Starting sequence: E2F1 docking peptide (human); PPVKRRLDFETDH; partner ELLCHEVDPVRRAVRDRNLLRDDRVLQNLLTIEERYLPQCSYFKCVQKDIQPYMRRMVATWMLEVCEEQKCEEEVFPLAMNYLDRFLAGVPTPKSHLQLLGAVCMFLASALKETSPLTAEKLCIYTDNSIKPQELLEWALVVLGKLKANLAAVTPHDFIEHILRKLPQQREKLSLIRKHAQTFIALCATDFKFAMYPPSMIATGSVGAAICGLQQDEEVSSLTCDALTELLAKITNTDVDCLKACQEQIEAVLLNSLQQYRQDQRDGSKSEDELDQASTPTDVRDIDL
| Change | normalised enrichment score |
| --- | --- |
| PPVKYRLDFETDH [R5Y] | 0.366 |
| PPVKRRLLFETDH [D8L] | 1.43 |
| PPVGRRLDFETDH [K4G] | 1.14 |
| PPVKRRLDMETDH [F9M] | 0.167 |
| PIVKRRLDFETDH [P2I] | 1.04 |
| PPVKRRLDFYTDH [E10Y] | 1.18 |
| PPVKIRLDFETDH [R5I] | 0.506 |
| PPVKRRDDFETDH [L7D] | -0.0887 |
| PAVKRRLDFETDH [P2A] | 0.886 |
| PPVKCRLDFETDH [R5C] | 0.326 |
| PPVFRRLDFETDH [K4F] | 0.507 |
| PPIKRRLDFETDH [V3I] | 1.31 |
| PPVKRRLDFTTDH [E10T] | 1.88 |
| PPVKRRLIFETDH [D8I] | 1.94 |
| PPVKRRLDFEFDH [T11F] | 2.12 |
| PPDKRRLDFETDH [V3D] | -0.0181 |
| PPVKRELDFETDH [R6E] | 0.692 |
| PPVKRSLDFETDH [R6S] | 0.826 |

Series 4 — method: protein-binding microarray; form: double-stranded DNA, one strand shown; matrix: in vitro; concentration: 250 nM; notes: 60-bp whole probe; with: salmon DNA 0.4 mg/ml; relative to: random background probes; direction: higher = stronger binding; all sequences stand within: GCCTAGCAC … GTCTTGATTCGCTTGACGCTGCTG
Target: Interferon regulatory factor 5, full length, phosphomimetic (IRF5, Homo sapiens, UniProt Q13568-2, residues 1-514, K96S/S451D/S453D/S456D/S462D)
| Strand | log fluorescence [z-score] |
| --- | --- |
| TTAGGTAGCGGTCTCGGTTAGTGCTAG | 0.3 |
| GACGGACTGGGGCATCGGGACGTGCTA | -0.763 |
| TTAGGTTTCGACTACCGGTTAGTGCTA | 7.8 |
| TTAGATCTCAGAGTGGATTAGTGCTAG | -0.056 |
| GTCGGTATCGGGTATCGGGACGTGCTA | 4.92 |
| TAAGATATCAGTTTCGATTAGTGCTAG | 9.86 |
| TTAGGTGTCGGGACTGGGTTAGTGCTA | -0.246 |
| TCAGGTCTCCCTTGAGGTTTGTGCTAG | -0.49 |
| AGGAATCTTGAGTTAGAGACGTGCTAG | -0.437 |
| TTAGGTATCGGGACCGGGTTAGTGCTA | 1.9 |
| TCATTCTCCTATTTAAGACTGTGCTAG | 0.692 |
| TCACAATTTGCTTTAGTACTGTGCTAG | 0.412 |
| TTTTTTTTACTTCGGGTGACGTGCTAG | 1.27 |
| TTAGATTTCAGTTACGATTAGTGCTAG | 2.54 |
| TCAACTCTCTGCTTGTGACTGTGCTAG | 0.0451 |
| TTTGGTTTCGGTATCGGTTAGTGCTAG | 11.6 |
| TTTGGTTTCGGTTCCGGTTAGTGCTAG | 11.2 |
| TTAGAGCTCAGTCTCGATTAGTGCTAG | 0.23 |
| TTAGGTACCCTTCTCCTTTAGTGCTAG | 0.0724 |
| GACGGACTGCTACTGCTGATGTGCTAG | -0.558 |
| TCAACTTTCTTTTTTTCACTGTGCTAG | 3.07 |
| TTAGGTTCCGGTTTCGGTCAGTGCTAG | 9.09 |
| TGAGGTCTCGGTCTCGGTTAGTGCTAG | 0.418 |
| GACGGTATCGACTTTCGCGACGTGCTA | 3.28 |
| TTAGGTATCCGACTGGGTTAGTGCTAG | -0.143 |

Series 5 — method: protein binding microarray; form: double-stranded DNA, one strand shown; matrix: in vitro; concentration: not given; relative to: not given; direction: higher = stronger binding
Target: Histone acetyltransferase KAT6A, both winged helices, GST fusion (KAT6A, Homo sapiens, UniProt Q92794, residues 1-181)
Notes: 8-mer, flanks averaged, mean of 2 arrays, mostly near background
Construct (chain): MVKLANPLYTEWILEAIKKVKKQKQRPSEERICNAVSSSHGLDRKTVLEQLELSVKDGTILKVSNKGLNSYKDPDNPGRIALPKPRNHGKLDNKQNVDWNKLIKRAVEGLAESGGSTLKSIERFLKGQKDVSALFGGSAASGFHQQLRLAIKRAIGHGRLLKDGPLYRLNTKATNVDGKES
| Strand | E-score |
| --- | --- |
| TCCCTGAA | -0.0801 |
| CGTGACGA | 0.117 |
| ATCGCGGA | 0.132 |
| ATCCGCAG | 0.133 |
| ACAGCTCA | -0.0955 |
| CAACAACA | -0.166 |
| GCGATTCC | 0.171 |
| GTGAGCTA | -0.167 |
| CGCCTTAC | 0.0753 |
| GATTGCTA | -0.00393 |
| AGGACCCT | -0.151 |
| TAGCCAAA | -0.0838 |
| ACCCCGTC | 0.199 |
| ACTCAGCA | -0.106 |
| GGAGTGCA | -0.147 |
| CAAGGGTG | 0.0542 |
| ATACCGCC | 0.211 |
| GAGGGCCC | -0.111 |
| CACGACGA | -0.0207 |
| TAACCCGA | 0.222 |
| CCACCTCC | -0.13 |
| ATGGTGTG | -0.217 |
| AGTCTACG | -0.106 |
| ATTTGTAG | -0.144 |
| ATTCAAAT | -0.0752 |

Mixed results
| Molecule | target | test | system | setting | scale | endpoint | value |
| --- | --- | --- | --- | --- | --- | --- | --- |
| PhoQ, residues 284 288 289 292 302 303 GASLAW | PhoP, residues 12 14 15 18 19 TTLRV (Escherichia coli, UniProt P23836) | Sort-seq, item: YFP reporter | E. coli | PhoQ-PhoP variant library, with: 10 µM Mg2+ | relative to: high Mg2+ state, higher = stronger signaling | fold induction | 1.23 |

Repeated from above (series 5):
| Strand | E-score |
| --- | --- |
| CACGACGA | -0.0207 |
| TAACCCGA | 0.222 |
| CCACCTCC | -0.13 |
| ATGGTGTG | -0.217 |
| AGTCTACG | -0.106 |
